Assay results gathered from unrelated publications.
Numbered parts are unrelated; each lists some results of a single study.
Chain of UniProt P00519 (whole entry, unmodified, looked up): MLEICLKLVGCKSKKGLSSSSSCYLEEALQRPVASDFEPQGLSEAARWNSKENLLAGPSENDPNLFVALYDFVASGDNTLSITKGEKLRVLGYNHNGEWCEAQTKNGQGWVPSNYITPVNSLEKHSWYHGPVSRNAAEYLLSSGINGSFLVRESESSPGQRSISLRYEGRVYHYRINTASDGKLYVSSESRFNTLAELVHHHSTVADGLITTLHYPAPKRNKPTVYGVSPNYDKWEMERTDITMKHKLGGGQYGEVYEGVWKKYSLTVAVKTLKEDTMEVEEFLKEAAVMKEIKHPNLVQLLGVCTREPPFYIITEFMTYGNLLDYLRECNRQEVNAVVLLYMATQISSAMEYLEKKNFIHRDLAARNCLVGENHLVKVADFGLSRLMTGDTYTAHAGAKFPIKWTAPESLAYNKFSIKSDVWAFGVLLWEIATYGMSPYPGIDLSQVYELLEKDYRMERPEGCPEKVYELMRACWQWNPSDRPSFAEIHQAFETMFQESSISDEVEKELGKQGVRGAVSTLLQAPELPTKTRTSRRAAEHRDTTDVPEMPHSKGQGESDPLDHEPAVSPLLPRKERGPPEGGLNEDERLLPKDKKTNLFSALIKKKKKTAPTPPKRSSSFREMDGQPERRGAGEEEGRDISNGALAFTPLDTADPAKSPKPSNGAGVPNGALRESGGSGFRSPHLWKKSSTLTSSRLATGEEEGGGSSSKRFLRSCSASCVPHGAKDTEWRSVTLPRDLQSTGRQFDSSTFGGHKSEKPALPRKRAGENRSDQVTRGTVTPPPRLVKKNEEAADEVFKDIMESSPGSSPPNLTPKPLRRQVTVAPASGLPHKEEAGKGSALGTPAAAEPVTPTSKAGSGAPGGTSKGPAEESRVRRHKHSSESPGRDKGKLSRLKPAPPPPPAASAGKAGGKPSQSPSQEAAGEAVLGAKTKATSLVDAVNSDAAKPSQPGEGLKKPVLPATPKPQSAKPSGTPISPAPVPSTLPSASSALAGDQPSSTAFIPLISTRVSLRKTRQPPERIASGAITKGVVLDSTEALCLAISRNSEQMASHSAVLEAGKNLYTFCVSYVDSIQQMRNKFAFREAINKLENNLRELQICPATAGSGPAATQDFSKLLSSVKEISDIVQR

Study 1
Target: Tyrosine-protein kinase Fes/Fps (FES, Homo sapiens, UniProt P07332)
Chain of UniProt P07332 (whole entry, looked up): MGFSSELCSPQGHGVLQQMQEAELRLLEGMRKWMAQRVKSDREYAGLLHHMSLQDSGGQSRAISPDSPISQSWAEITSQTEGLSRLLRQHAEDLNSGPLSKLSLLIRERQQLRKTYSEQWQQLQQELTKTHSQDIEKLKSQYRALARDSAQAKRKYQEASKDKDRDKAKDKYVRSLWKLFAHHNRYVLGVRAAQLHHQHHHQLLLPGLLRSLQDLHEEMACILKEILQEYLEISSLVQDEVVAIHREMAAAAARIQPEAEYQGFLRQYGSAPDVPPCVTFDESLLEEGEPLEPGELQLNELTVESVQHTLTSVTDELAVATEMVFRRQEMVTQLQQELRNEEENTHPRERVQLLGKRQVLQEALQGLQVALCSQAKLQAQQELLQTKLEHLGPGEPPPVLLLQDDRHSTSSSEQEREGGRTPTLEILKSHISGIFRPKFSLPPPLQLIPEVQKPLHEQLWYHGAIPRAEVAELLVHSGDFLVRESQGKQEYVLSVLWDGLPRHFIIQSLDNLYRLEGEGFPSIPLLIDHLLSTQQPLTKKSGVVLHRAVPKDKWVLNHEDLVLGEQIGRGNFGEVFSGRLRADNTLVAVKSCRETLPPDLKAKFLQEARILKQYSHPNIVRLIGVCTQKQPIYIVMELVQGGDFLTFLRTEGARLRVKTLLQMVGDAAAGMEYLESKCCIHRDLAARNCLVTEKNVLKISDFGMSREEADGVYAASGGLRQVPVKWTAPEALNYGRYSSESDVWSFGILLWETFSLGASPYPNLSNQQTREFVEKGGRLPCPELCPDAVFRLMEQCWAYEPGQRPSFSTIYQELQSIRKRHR
Observed: enzyme activity
Mode: inhibitor
Concentration: 0.5 µM
Baseline: control
Compound	remaining activity [%]
CCCC(=O)Oc1ccc2[nH]c(C(=O)c3cc4ccccc4[nH]3)cc2c1	97.8
Cc1cncc2cccc(S(=O)(=O)N3CCCN(C(=O)CN)C[C@@H]3C)c12	102
CC[n+]1c(/C=C/N(C)c2ccccc2)n(-c2ccccc2)c2ccc(-c3nc4ccccc4s3)cc21	101
CCc1[nH]c(-c2ccc(OC)cc2)nc1-c1ccncc1	100
O=C1NC(=O)C(c2c[nH]c3ccccc23)=C1c1c[nH]c2ccccc12	99.8
O=S(=O)(NCCNC/C=C/c1ccc(Br)cc1)c1cccc2cnccc12	115
Cc1cc(Nc2nc(-c3ccccc3)nc3ccccc23)n[nH]1	94.7
N#CC(=C(N)Sc1ccc(N)cc1)c1ccccc1C(F)(F)F	98

Study 2
SMILES: C=CCc1ccc(O)c(-c2cc(CC=C)ccc2O)c1
Observed: chloride current
Technique: whole-cell voltage clamp
ANO1 del476-501/F627A: Anoctamin-1 (ANO1, Homo sapiens, UniProt Q5XXA6, del476-501/F627A)
Chain of UniProt Q5XXA6 (whole entry, unmodified, looked up): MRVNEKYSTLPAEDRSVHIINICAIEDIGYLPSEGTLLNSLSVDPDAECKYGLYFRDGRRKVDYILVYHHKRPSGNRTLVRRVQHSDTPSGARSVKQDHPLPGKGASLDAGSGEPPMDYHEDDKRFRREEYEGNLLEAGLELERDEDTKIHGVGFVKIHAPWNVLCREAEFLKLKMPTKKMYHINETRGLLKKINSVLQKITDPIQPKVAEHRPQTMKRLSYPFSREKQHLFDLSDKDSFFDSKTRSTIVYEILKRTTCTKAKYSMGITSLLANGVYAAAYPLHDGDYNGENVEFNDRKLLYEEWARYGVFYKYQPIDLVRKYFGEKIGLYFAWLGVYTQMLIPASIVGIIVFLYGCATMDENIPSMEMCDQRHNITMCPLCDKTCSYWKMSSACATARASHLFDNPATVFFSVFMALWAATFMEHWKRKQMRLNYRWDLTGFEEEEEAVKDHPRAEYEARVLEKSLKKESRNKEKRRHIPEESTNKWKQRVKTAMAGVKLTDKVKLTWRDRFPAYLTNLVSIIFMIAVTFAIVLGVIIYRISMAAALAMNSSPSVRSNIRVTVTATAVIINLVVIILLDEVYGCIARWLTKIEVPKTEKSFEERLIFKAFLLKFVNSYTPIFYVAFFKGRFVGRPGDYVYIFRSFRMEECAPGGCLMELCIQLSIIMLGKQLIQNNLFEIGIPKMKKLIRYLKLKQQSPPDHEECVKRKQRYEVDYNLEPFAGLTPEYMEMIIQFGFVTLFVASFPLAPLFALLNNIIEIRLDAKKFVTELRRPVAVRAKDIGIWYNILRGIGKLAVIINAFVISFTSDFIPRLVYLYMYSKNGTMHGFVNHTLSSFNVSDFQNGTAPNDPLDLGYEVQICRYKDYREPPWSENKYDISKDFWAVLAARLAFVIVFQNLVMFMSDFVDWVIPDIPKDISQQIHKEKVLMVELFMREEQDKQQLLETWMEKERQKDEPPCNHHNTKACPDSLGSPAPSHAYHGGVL
target	assay	setting	IC50
Anoctamin-1 (ANO1, Homo sapiens, UniProt Q5XXA6, del476-501/R541K)	inhibitor	R515K mutant at 100 mV	29.4 µM
Anoctamin-1 (ANO1, Homo sapiens, UniProt Q5XXA6, del476-501/L548A)	–	membrane voltage -60 mV	40.6 µM
Anoctamin-1 (ANO1, Homo sapiens, UniProt Q5XXA6, del476-501/F623A)	–	membrane voltage 60 mV	23.2 µM
Anoctamin-1 (ANO1, Homo sapiens, UniProt Q5XXA6, del476-501/F807A)	–	membrane voltage 20 mV	17.3 µM
Anoctamin-1 (ANO1, Homo sapiens, UniProt Q5XXA6, del476-501/M544A)	–	membrane voltage -100 mV	129 µM
ANO1 del476-501/F627A	–	membrane voltage -100 mV	54.2 µM
Anoctamin-1 (ANO1, Homo sapiens, UniProt Q5XXA6, del476-501/M544V)	inhibitor	40 mV holding voltage	87.8 µM
Anoctamin-1 (ANO1, Homo sapiens, UniProt Q5XXA6, del476-501/E649D)	inhibitor	mutant E623D	56.9 µM
Anoctamin-1 (ANO1, Homo sapiens, UniProt Q5XXA6, del476-501/E649I)	inhibitor	E623I mutant at -60 mV	134 µM
Anoctamin-1 (ANO1, Homo sapiens, UniProt Q5XXA6, del476-501/K629I)	inhibitor	mutant K603I	215 µM
ANO1 del476-501/F627A	–	membrane voltage -80 mV	34.9 µM

Study 3
Cell line: A-375
Concentration: 100 µM
Time: 36 h
Compound	viability
CN1C2=CC(=O)/C(=N\NC(N)=O)C=C2CC1S(=O)(=O)O (stereo not shown)	111%
CC1=C(C)C(=O)C(C(CCCCCC(=O)O)c2ccccc2)=C(C)C1=O (stereo not shown)	92.1%
CC(=O)N(CC(O)CO)c1c(I)c(C(=O)NCC(O)CO)c(I)c(C(=O)NCC(O)CO)c1I (mixture of isomers)	111%
CC(C)(Sc1cc(C(C)(C)C)c(O)c(C(C)(C)C)c1)Sc1cc(C(C)(C)C)c(O)c(C(C)(C)C)c1	62.6%
Nc1ccn([C@@H]2O[C@H](CO)[C@@H](O)C2(F)F)c(=O)n1	23.3%
C/C(=C\C(=O)OCCCCCCCCC(=O)O)C[C@@H]1OC[C@H](C[C@@H]2O[C@H]2[C@@H](C)[C@H](C)O)[C@@H](O)[C@H]1O	96.8%
C#C[C@]1(O)CC[C@H]2[C@@H]3CCC4=CC(=O)CC[C@@H]4[C@H]3C(=C)C[C@@]21CC	62.5%
Clc1ccc(C(Cn2ccnc2)OCc2c(Cl)cccc2Cl)c(Cl)c1 (stereo not shown)	74.8%
Nc1nccs1	117%
CC(=O)Oc1cc(C(F)(F)F)ccc1C(=O)O	94.1%
NS(=O)(=O)c1cc2c(cc1C(F)(F)F)NC(Cc1ccccc1)NS2(=O)=O (stereo not shown)	79%

Mixed results
SMILES	target	assay	setting	endpoint	result
Cn1cncc1[C@@](O)(COc1ccc(C#N)cc1-c1ccc(OC(F)(F)F)cc1)c1ccc(C#N)cc1	Tyrosine-protein kinase ABL1, non-phosphorylated (ABL1, Homo sapiens, UniProt P00519, F317I)	binding, competition with immobilised ligand	1 µM	remaining binding	100%

For quick reference, copied from above (study 2):
target	assay	setting	IC50
Anoctamin-1 (ANO1, Homo sapiens, UniProt Q5XXA6, del476-501/F807A)	–	membrane voltage 20 mV	17.3 µM
Anoctamin-1 (ANO1, Homo sapiens, UniProt Q5XXA6, del476-501/K629I)	inhibitor	mutant K603I	215 µM
ANO1 del476-501/F627A	–	membrane voltage -80 mV	34.9 µM
